Published values gathered from unrelated publications.
A part holds a random share of what one study measured.

Block 1 — technique: protein-binding microarray; molecule type: double-stranded DNA, one strand shown; matrix: in vitro; tested at: not given; direction: higher = stronger binding
Target: Max-binding protein MNT, bHLH-zipper, MAX partner unstated (MNT, Homo sapiens, UniProt Q99583, residues 220-300)
Notes: k-mer, scored over probes, only values ≥0.25
Construct (chain): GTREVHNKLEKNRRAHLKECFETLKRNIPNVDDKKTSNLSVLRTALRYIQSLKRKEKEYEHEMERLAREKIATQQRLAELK
Oligonucleotide | E-score
CGCCCCAA | 0.285
CCGTGCGC | 0.315
CATGTTTC | 0.318
AGCGCGCG | 0.257
CGTGTTGC | 0.339
GCGTGAGC | 0.289
CATGCAAG | 0.293

Block 2 — technique: protein binding microarray; molecule type: double-stranded DNA, one strand shown; matrix: in vitro; tested at: not given; reference: not given; direction: higher = stronger binding
Target: Histone acetyltransferase KAT6A, winged helix 1, GST fusion (KAT6A, Homo sapiens, UniProt Q92794, residues 1-85)
Notes: 8-mer, flanks averaged, mean of 2 arrays, mostly near background
Residues (chain): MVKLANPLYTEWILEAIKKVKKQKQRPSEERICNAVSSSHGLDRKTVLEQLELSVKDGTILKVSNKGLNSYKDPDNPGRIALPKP
Oligonucleotide | E-score
TAGATATA | 0.0205
TACGGCTA | 0.313
CGACACAC | -0.0412
GCAGGGTA | -0.168
AGACTTGG | -0.288
GGTGCAAC | -0.0457
ACAGACAC | -0.14
ACCGCAAA | 0.185
ACGATGCT | -0.00492
CTGGTCGC | 0.174
CTCCGAGA | 0.0126
GACAAAAC | -0.141
AATTAGAG | -0.129
CGGCCTAC | 0.184
AATTCAAC | -0.1
AATGGCCG | 0.172
CCCCTCAA | -0.149
CGAGTACC | 0.0673
CGGCGATA | 0.327
GAAGTTCC | 0.0182
CACGGGAC | 0.219
ACGCCCGC | 0.405
AGCCGACC | 0.326
ACTTTCGC | 0.0142

Block 3 — technique: protein-binding microarray; molecule type: double-stranded DNA, one strand shown; matrix: in vitro; tested at: 2200 nM top; notes: 60-bp whole probe; together with: salmon DNA 0.4 mg/ml; reference: random background probes; direction: higher = stronger binding; constant ends, left off below: GCCTAGCAC … GTCTTGATTCGCTTGACGCTGCTG
Target: Interferon regulatory factor 7, full length, phosphomimetic (IRF7, Homo sapiens, UniProt Q92985, residues 1-503, S471D/S472D/S475D/S476D/S477D/S483D/S484D/S487D)
Construct (chain): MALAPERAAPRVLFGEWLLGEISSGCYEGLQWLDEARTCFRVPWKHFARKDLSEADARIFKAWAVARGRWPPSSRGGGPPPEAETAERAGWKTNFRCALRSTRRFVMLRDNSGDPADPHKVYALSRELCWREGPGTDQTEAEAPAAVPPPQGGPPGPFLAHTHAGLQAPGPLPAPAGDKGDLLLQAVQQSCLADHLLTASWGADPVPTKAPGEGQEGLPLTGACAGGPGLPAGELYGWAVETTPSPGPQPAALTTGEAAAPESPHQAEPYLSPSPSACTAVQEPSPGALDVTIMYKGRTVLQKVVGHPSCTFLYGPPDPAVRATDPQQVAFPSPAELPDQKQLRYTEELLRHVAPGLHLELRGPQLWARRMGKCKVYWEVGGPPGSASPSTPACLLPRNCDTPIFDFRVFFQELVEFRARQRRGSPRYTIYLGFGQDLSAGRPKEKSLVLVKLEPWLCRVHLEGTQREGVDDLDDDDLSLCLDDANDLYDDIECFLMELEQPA
Oligonucleotide | fitted relative affinity
GACGGTTTCGACTATCGGGGCGTGCTA | 3.57 z-score
TTAGGTCTCGGTATCGGTTTGTGCTAG | 1.83 z-score
TTAGATTCCAGATTCGATTAGTGCTAG | 2.01 z-score
TTTGCTTTCCTTTATGTACTGTGCTAG | 3.37 z-score
GACGGTATCGACATTGGGGACGTGCTA | -0.13 z-score

Block 4 — technique: universal PBM; molecule type: double-stranded DNA, one strand shown; matrix: in vitro; tested at: not given; direction: higher = stronger binding
Target: Sal-like protein 4, full length isoform B (SALL4, Homo sapiens, UniProt Q9UJQ4-2, residues 1-616)
Notes: 8-mer, flanks averaged, mean of replicates
Target sequence (chain): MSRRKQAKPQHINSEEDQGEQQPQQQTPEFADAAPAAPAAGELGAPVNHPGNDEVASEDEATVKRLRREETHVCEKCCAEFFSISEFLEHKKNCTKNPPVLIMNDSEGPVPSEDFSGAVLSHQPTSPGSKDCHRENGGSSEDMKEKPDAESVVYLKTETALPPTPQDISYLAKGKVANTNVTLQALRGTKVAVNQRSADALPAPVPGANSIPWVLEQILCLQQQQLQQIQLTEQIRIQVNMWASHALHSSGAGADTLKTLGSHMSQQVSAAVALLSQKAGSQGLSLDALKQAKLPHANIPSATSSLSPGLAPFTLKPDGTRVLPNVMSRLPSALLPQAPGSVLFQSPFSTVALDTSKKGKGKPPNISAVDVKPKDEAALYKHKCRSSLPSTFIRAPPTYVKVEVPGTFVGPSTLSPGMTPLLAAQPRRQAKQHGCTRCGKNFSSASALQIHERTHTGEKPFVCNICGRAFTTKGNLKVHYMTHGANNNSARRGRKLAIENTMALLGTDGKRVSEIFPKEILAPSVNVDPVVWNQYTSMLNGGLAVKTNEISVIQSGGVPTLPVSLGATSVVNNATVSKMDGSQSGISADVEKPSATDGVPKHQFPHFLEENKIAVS
Oligonucleotide | E-score
AGGCCCCT | -0.294
CGACAAGA | -0.00885
CCACTGAC | -0.246
AGGACAGA | -0.0148
TCTTTCCA | -0.0805
ACGATTCA | 0.0421

Block 5 — technique: protein-binding microarray; molecule type: double-stranded DNA, one strand shown; matrix: in vitro; tested at: 0.8 µM; notes: whole 60-bp probe, no competitor; direction: higher = stronger binding; constant ends, left off below: … GTCTTGATTCGCTTGACGCTGCTG
Target: Centromere-binding protein 1, full length, N-terminal tag (CBF1, Saccharomyces cerevisiae, UniProt P17106, residues 1-351)
Sequence of UniProt P17106 (whole entry, looked up): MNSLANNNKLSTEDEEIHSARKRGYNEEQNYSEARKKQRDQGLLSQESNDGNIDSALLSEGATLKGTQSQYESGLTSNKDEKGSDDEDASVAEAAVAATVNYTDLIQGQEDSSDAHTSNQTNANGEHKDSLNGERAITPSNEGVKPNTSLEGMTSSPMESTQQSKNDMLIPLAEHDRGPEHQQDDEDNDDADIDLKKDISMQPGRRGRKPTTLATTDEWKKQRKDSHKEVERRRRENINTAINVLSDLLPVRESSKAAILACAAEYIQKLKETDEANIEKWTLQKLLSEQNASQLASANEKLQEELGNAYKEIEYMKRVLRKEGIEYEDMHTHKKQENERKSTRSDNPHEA
Oligonucleotide | fluorescence intensity [a.u.]
CTACACACCACACACTACGTCACAACACAACAATTC | 634
CCTAACTACTATACACACGTAATATAGCTTCGTACA | 512
GAATTTTGTTTCGTCCACCTGACCGAGCCGGCATAG | 1920
GAAAAAGAATGGGATCACGATGAAGTTGTAGAGTAG | 599
GAACTAGTCTATGATCCGTCACCTATTTTTATTTAG | 542

Single results of other studies
Molecule | target | assay | system | setting | how to read | quantity | value
PhoQ, residues 284 288 289 292 302 303 NLCILV | PhoP, residues 12 14 15 18 19 STWGI (Escherichia coli, UniProt P23836) | Sort-seq, measured: YFP reporter | E. coli | PhoQ-PhoP variant library, together with: 10 µM Mg2+ | reference: high Mg2+ state, higher = stronger signaling | fold induction | 10.6

Excerpt of the above (block 2):
Oligonucleotide | E-score
AGCCGACC | 0.326
CACGGGAC | 0.219
GCAGGGTA | -0.168
AGACTTGG | -0.288
